Assay results gathered from unrelated publications.
Every numbered part comes from another study and shows a few of its results, in no order. Positions count from the first letter of the parent shown.

Set 1 — technique: protein binding microarray; form: double-stranded DNA, one strand shown; matrix: in vitro; tested at: not given; reference: not given; reading: higher = stronger binding; quantity: E-score
Target: Histone acetyltransferase KAT6A, winged helix 2, GST fusion (KAT6A, Homo sapiens, UniProt Q92794, residues 85-181)
Notes: 8-mer, flanks averaged, mean of 2 arrays, mostly near background
Target sequence (chain): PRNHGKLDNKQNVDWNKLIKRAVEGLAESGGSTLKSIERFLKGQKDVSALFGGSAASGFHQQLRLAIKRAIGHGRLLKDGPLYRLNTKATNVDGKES
Oligonucleotide = GGTTCTAA; value = 0.00381
Oligonucleotide = ATCTGAGA; value = 0.0554
Oligonucleotide = AAGTCTGA; value = -0.283
Oligonucleotide = CACTAGTC; value = -0.161
Oligonucleotide = AGTTCAAC; value = -0.0431
Oligonucleotide = AGTGTGAG; value = -0.0245
Oligonucleotide = CTACACAG; value = -0.0271
Oligonucleotide = GTATCCGA; value = 0.0327
Oligonucleotide = ACAATGAG; value = -0.0645
Oligonucleotide = CCGCAGAC; value = 0.0484
Oligonucleotide = AAAACAAG; value = 0.0233
Oligonucleotide = AAATCTTC; value = -0.139
Oligonucleotide = CGAGACAA; value = 0.0743
Oligonucleotide = ATCTGAGG; value = -0.116
Oligonucleotide = GTAGTATA; value = -0.0315
Oligonucleotide = TATTATGA; value = -0.144

Set 2 — target: CCNA1, cyclin fold, Cln2 fusion (human); technique: yeast growth competition, sequencing; matrix: yeast; notes: weak parent motif; reference: not given; reading: higher = stronger binding; quantity: normalised enrichment score
Starting sequence: PKMYT1 docking peptide (human); SFEPRNLLSLFED; partner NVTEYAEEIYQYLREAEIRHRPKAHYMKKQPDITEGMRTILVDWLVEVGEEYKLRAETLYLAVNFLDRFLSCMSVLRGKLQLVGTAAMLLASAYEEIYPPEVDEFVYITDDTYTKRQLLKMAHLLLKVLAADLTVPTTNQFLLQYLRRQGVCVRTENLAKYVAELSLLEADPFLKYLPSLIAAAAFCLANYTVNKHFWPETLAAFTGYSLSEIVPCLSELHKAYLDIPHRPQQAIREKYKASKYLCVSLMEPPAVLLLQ
Substitution = N6F; value = 0.491
Substitution = P4S; value = 0.472
Substitution = S1V; value = 0.408
Substitution = L10M; value = 0.138
Substitution = F2D; value = 0.438
Substitution = S1T; value = 0.0632
Substitution = L8W; value = 0.202
Substitution = L10A; value = 0.358
Substitution = S9M; value = 0.0913
Substitution = L8R; value = 0.117
Substitution = R5S; value = 0.127
Substitution = D13W; value = -0.132
Substitution = E12S; value = -0.267
Substitution = S9H; value = 0.227
Substitution = S9Y; value = 0.3
Substitution = R5M; value = 0.182

Set 3 — technique: RNA Bind-n-Seq; form: RNA; matrix: in vitro; tested at: not given; notes: RNA with constant flanks, ends assumed; reference: input RNA pool; reading: higher = stronger binding; quantity: bound/input enrichment
Target: RING finger protein unkempt homolog, zinc fingers 1-6, GST-SBP tag (UNK, Homo sapiens, UniProt Q9C0B0, residues 30-357)
All sequences stand within: GGGAGUUCUACAGUCCGACGAUC … CAACAGAGGAUUGAGCAUCA
Construct (chain): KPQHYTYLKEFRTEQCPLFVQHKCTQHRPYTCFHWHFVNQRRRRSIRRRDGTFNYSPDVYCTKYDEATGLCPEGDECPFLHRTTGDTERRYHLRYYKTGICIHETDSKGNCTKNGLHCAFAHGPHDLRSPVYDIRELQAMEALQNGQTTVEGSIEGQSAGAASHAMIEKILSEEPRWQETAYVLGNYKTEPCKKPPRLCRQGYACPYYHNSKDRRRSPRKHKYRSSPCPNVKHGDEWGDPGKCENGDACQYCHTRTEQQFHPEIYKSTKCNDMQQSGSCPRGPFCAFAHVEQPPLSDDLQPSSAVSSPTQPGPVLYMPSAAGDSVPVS
Oligonucleotide = GUCAUCGAUGCAGGAGUCUGCAGGAGGCUUGUGGAACUUCUGAUGCAUAAUGACUAUAAAGCCGUUUCUCCUGCUUUGCGGGCUGUGGGAAACAUUGUCACAGGGGAUGAUAUUCAGACA; value = 0.185 ratio
Oligonucleotide = AGAGUGGUUGUGGAACCUGUUGGCCCAGUUGGUUUCAAGCCAGAGACAUUCAGAAAGUUUUCCGCUCUAUAUUUGCAUGGUGCUGCGUGAGCGGAGGACCCCUCUGAAUCCUGAAACCCC; value = 0.109 ratio
Oligonucleotide = GCAAAUCUCUAAGUUUUUUGGUUUUUUUUUAUUUUUAAUUUUUAUUUUUGCUUGGGCUUGCUCCGUUUGGGAGGGGAUGGUGCUCCGAGAUCUCUGGAAACAGGAGGCCCCUGUCAGCCA; value = 18.6 ratio
Oligonucleotide = CAGAUAGCAUCAUUAAGAUCAGUUUUAAGGGGUAUAGGGAGGGUGAGGGAAGUGGGGGGUGUCCGGUAAGGGUUGGGGGUAGAGGUUUUGGGAUGUCUUAGUUAGAAACCAGAUUAAUAG; value = 12.8 ratio
Oligonucleotide = AACACAUUUAAUGAACAUCAUACACAAGACAGCAACAUACCUUUCUUUCUUGGUCAGACCAUCCGAUGGAGAGGAUUAUGUCUACUGAAAAUACUUUUGGCACGCCAUCACUUCAGCAAA; value = 0.252 ratio
Oligonucleotide = UGUGGCUUUAACAUUUUCUGCAACUAUUUAUGAAGACUUCUGUUAUACAUGUAAUAAAUAUACCGAAAAAGCACAUACUUCGCAAGUGAGCUUUAUGGUUCUGUGUGUGUUGGGGGUGGG; value = 0.582 ratio
Oligonucleotide = AUCAUCGAGGCAUUUUAUGGAGGCUCCCAUCGACAGCUGGUAGAGCUGCUCCGAGAAGAAUCCGAUGACUGCGUGUUGUACACUCUUCCUGCAAAGAAAUGGCACUGGAGAGCACGCACA; value = 0.0907 ratio
Oligonucleotide = GGCCAGGCUUUUGAGCUGAUCUUGAAGCCACCAUCUCCCAUCUCAGAAGCUCCACGAACUCCCGCUUCUCCAAAGAAGAAAGACCUGUCUCUGGAGGAGAUUCAGAAAAAGCUGGAGGCU; value = 0.716 ratio

Set 4 — technique: aptamer microarray, sandwich; form: DNA with 2'F-ANA; matrix: in vitro; tested at: 200 nM; added: Cy3 exosite-II aptamer, 400 nM; reading: higher = stronger binding; quantity: mean fluorescence intensity; oligonucleotide: GGTTGGTGTGGTTGG
Target: Prothrombin, mature alpha-thrombin (F2, Homo sapiens, UniProt P00734)
Notes: whole 15-mer aptamer, many near background
Modification = 2'F-ANA at 3 4 5 9 10 13; value = 48.3 a.u.
Modification = 2'F-ANA at 2 3 4 5 6; value = 88 a.u.
Modification = 2'F-ANA at 1 2 5 6 7 8 9 12 13 14; value = 49 a.u.
Modification = 2'F-ANA at 1 3 6 7 8 12 13 14 15; value = 132 a.u.
Modification = 2'F-ANA at 2 9 11 12 15; value = 545 a.u.
Modification = 2'F-ANA at 5 8 9 11 12 13; value = 128 a.u.
Modification = 2'F-ANA at 1 2 3 4 6 9 14 15; value = 55.5 a.u.
Modification = 2'F-ANA at 2 4 5 6 7 8 11 12 13 14; value = 47.8 a.u.
Modification = 2'F-ANA at 2 3 6 7 9 10 13 15; value = 275 a.u.
Modification = 2'F-ANA at 2 3 4 5 6 7 9 12 13 14; value = 49.9 a.u.
Modification = 2'F-ANA at 1 3 4 10 11 12 15; value = 80 a.u.
Modification = 2'F-ANA at 2 5 10 11 12 14; value = 42.5 a.u.
Modification = 2'F-ANA at 1 4 5 6 8 9 10 11 12 13 15; value = 61.9 a.u.
Modification = 2'F-ANA at 2 12 14; value = 202 a.u.
Modification = 2'F-ANA at 3 5 6 7 9 11 12 13 14 15; value = 73.1 a.u.
Modification = 2'F-ANA at 1 2 6 7 8 11 12 13 14 15; value = 100 a.u.
Modification = 2'F-ANA at 2 4 5 6 7 10 11; value = 49.6 a.u.
Modification = 2'F-ANA at 1 2 6 11 15; value = 125 a.u.
Modification = 2'F-ANA at 1 8 9 11 13; value = 163 a.u.
Modification = 2'F-ANA at 8 9 14; value = 177 a.u.
Modification = 2'F-ANA at 1 2 3 4 5 7 8 9 11 13 14; value = 44.4 a.u.

Set 5 — technique: DHFR PCA, deep sequencing; matrix: yeast; added: (+)-ABA 0.11 µM; reference: wild-type fitted maximum; reading: higher = stronger binding; quantity: relative binding score
Target: ABI1, truncated, D143A, DHFR fusion (Arabidopsis thaliana)
Notes: methotrexate growth selection, single substitutions
Starting sequence: PYL1, truncated, DHFR fusion (Arabidopsis thaliana); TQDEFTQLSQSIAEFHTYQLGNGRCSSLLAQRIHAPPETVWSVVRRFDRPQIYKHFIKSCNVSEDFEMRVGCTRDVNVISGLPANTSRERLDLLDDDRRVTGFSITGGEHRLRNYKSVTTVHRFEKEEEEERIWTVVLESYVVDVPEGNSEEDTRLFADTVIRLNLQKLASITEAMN
Substitution = E4G; value = 7.86%
Substitution = Q2E; value = 41.1%
Substitution = D75Y; value = 34.1%
Substitution = S26H; value = 19.9%
Substitution = T73R; value = 1.49%
Substitution = V136N; value = -4.65%
Substitution = G71K; value = -6.74%
Substitution = A170H; value = -0.939%
Substitution = L166I; value = -1.37%
Substitution = I33Q; value = -2.98%
Substitution = H55L; value = 27.3%
Substitution = L94V; value = -1.7%
Substitution = P37Q; value = 9.45%
Substitution = G23E; value = 4.36%
Substitution = Q51P; value = -1.55%
Substitution = P36Y; value = 5.26%
Substitution = D159C; value = -7.89%

Some of these lines once more (set 3):
Oligonucleotide = AGAGUGGUUGUGGAACCUGUUGGCCCAGUUGGUUUCAAGCCAGAGACAUUCAGAAAGUUUUCCGCUCUAUAUUUGCAUGGUGCUGCGUGAGCGGAGGACCCCUCUGAAUCCUGAAACCCC; value = 0.109 ratio
Oligonucleotide = GUCAUCGAUGCAGGAGUCUGCAGGAGGCUUGUGGAACUUCUGAUGCAUAAUGACUAUAAAGCCGUUUCUCCUGCUUUGCGGGCUGUGGGAAACAUUGUCACAGGGGAUGAUAUUCAGACA; value = 0.185 ratio
Oligonucleotide = UGUGGCUUUAACAUUUUCUGCAACUAUUUAUGAAGACUUCUGUUAUACAUGUAAUAAAUAUACCGAAAAAGCACAUACUUCGCAAGUGAGCUUUAUGGUUCUGUGUGUGUUGGGGGUGGG; value = 0.582 ratio
Oligonucleotide = CAGAUAGCAUCAUUAAGAUCAGUUUUAAGGGGUAUAGGGAGGGUGAGGGAAGUGGGGGGUGUCCGGUAAGGGUUGGGGGUAGAGGUUUUGGGAUGUCUUAGUUAGAAACCAGAUUAAUAG; value = 12.8 ratio
Oligonucleotide = GCAAAUCUCUAAGUUUUUUGGUUUUUUUUUAUUUUUAAUUUUUAUUUUUGCUUGGGCUUGCUCCGUUUGGGAGGGGAUGGUGCUCCGAGAUCUCUGGAAACAGGAGGCCCCUGUCAGCCA; value = 18.6 ratio
Oligonucleotide = AACACAUUUAAUGAACAUCAUACACAAGACAGCAACAUACCUUUCUUUCUUGGUCAGACCAUCCGAUGGAGAGGAUUAUGUCUACUGAAAAUACUUUUGGCACGCCAUCACUUCAGCAAA; value = 0.252 ratio
Oligonucleotide = GGCCAGGCUUUUGAGCUGAUCUUGAAGCCACCAUCUCCCAUCUCAGAAGCUCCACGAACUCCCGCUUCUCCAAAGAAGAAAGACCUGUCUCUGGAGGAGAUUCAGAAAAAGCUGGAGGCU; value = 0.716 ratio
Oligonucleotide = AUCAUCGAGGCAUUUUAUGGAGGCUCCCAUCGACAGCUGGUAGAGCUGCUCCGAGAAGAAUCCGAUGACUGCGUGUUGUACACUCUUCCUGCAAAGAAAUGGCACUGGAGAGCACGCACA; value = 0.0907 ratio
